Assay results collected from several papers.
Parts stem from different laboratories: compare values within a part only.

Sample 1
Target: Phosphate system positive regulatory protein PHO4, full length, GST-tagged (PHO4, Saccharomyces cerevisiae, UniProt P07270, residues 1-312)
Method: competition protein-binding microarray
Molecule type: double-stranded DNA, one strand shown
Medium: in vitro
Tested at: 2 µM
Setting: whole 60-bp probe, lowest competitor level
With: Cbf1 competitor, 0.05 µM
Reading: higher = stronger binding
Constant ends, left off below: … GTCTTGATTCGCTTGACGCTGCTG
Target sequence (chain): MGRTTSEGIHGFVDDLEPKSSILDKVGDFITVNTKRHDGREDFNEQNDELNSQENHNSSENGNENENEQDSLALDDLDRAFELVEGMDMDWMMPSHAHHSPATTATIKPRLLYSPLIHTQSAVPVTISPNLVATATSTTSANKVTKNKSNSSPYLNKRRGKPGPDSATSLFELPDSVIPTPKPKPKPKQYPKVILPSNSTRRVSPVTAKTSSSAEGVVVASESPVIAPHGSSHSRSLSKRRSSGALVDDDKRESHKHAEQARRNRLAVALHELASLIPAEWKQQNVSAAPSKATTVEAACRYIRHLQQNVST
With `CTTTCCCGATCTTGGTTCGTGGGTGTAGCACATTTG` the fluorescence intensity was 7000 a.u.
For `AAGGGATGGTACTATCACATGTCTCTTGTATCCGCA`, the fluorescence intensity was 9180 a.u.
`CTTTCCCGATCTTGTCTTGTGGGTGTAGCACATTTG` has a fluorescence intensity of 5340 a.u.
With `GTCTTGTCTCATTGGAAGGTGGGTGTCCCCACTTCA` the fluorescence intensity was 4800 a.u.
With `CTCCCTCTGTGCGGCCACGTGGGACTCGTCGTCTTG` the fluorescence intensity was 17700 a.u.
For `ATCGTCAAAAGAGTAAACGTGCCGAGCAAAATCATC`, the fluorescence intensity was 14300 a.u.
The fluorescence intensity of `AGATTTATGGCTTTCCATGTGGTTAAAGAAAAATTG` is reported as 7920 a.u.
`AGTGCTTTCCTTTGTCACCGGCGTAACGGATTCGCT` has a fluorescence intensity of 3000 a.u.
With `TGCGCAACAACTTGCTCTGTGGGTGTATGTCTAGAA` the fluorescence intensity was 4490 a.u.
With `CTTTCCCGATCTTTTCACGTGAAATTAGCACATTTG` the fluorescence intensity was 9340 a.u.
`CTTCTGTAAATTTGACACGTGGGTGGACGCGCCCCG` gave a fluorescence intensity of 20500 a.u.
`CGGGGTTAAGTTTGTCACTACACTTGCTTGCAGCAG` has a fluorescence intensity of 3840 a.u.
`CGGGGTTAAGTTTGTCACGATACTTGCTTGCAGCAG` has a fluorescence intensity of 5820 a.u.
With `CTTTCCCGATCTTGGATAGTGGGTGTAGCACATTTG` the fluorescence intensity was 4390 a.u.
With `TTGAACTGCTGGGATCGGATGACGTTTTGGAGGAAG` the fluorescence intensity was 3690 a.u.
The fluorescence intensity of `AGCGAGCCGGCGGCAATCGTGGGACGCGATGGCACT` is reported as 6080 a.u.
`CTTTCCCGATCTTGCCAGGTGGGTGTAGCACATTTG` gave a fluorescence intensity of 6020 a.u.
With `GCATAGTCATATCACCACGTGGAACATCATGAAAAA` the fluorescence intensity was 20600 a.u.
With `CTTGGCGTTGGTTATTGCGTGCTTTTCAAAAGACTC` the fluorescence intensity was 5520 a.u.
For `CTTAATTGCCGGCTCCTCGTGGTGAGATAAAATGAA`, the fluorescence intensity was 14000 a.u.

Sample 2
Target: PABPC1L2, full length, GST fusion (mouse, UniProt A0ABA7IW68)
Method: RNAcompete
Molecule type: RNA
Medium: in vitro
Tested at: 20 nM
Setting: 7-mer, probes averaged, single round
Reference: mean of 7-mers
Reading: higher = stronger binding
With `GCGGGCC` the 7-mer Z-score was -0.171.
The 7-mer Z-score of `UCCGUCA` is reported as -0.452.
`UCCUAGU` gave a 7-mer Z-score of -0.402.
For `CCAGCUG`, the 7-mer Z-score was -0.318.
The 7-mer Z-score of `UCUUGGA` is reported as -0.2.
For `CACUGGA`, the 7-mer Z-score was -0.0101.
`ACUGACG` gave a 7-mer Z-score of -0.164.
The 7-mer Z-score of `CACUCAU` is reported as -0.171.
`CACAGAU` has a 7-mer Z-score of -0.148.
The 7-mer Z-score of `GACCUGA` is reported as -0.248.
`GGUAUGC` has a 7-mer Z-score of 0.000733.
`UCUACCG` has a 7-mer Z-score of -0.351.
With `CAUCAAG` the 7-mer Z-score was -0.0718.
With `UCGCCGC` the 7-mer Z-score was -0.409.
For `UAUCUUU`, the 7-mer Z-score was -0.119.
`UUUCCUU` has a 7-mer Z-score of -0.394.
`AACUCAA` has a 7-mer Z-score of 0.0895.
The 7-mer Z-score of `ACGUUAG` is reported as -0.144.
With `UGUUCGG` the 7-mer Z-score was -0.454.
For `UGGAAUA`, the 7-mer Z-score was -0.00652.
The 7-mer Z-score of `AAUCUCA` is reported as 0.0388.
With `CCCGGUG` the 7-mer Z-score was -0.128.
With `UAGCGCU` the 7-mer Z-score was -0.324.
`CCUUUUG` has a 7-mer Z-score of -0.191.
With `GUCUAUG` the 7-mer Z-score was -0.307.

Sample 3
Target: Protein max, full length (MAX, Homo sapiens, UniProt P61244-2, residues 1-151)
Method: protein-binding microarray
Molecule type: double-stranded DNA, one strand shown
Medium: in vitro
Tested at: not given
Setting: k-mer, scored over probes, only values ≥0.25
Reading: higher = stronger binding
`ATTCCACG` gave an E-score of 0.332.
The E-score of `ACGTTGCC` is reported as 0.333.
The E-score of `AGCCCATG` is reported as 0.266.
With `ATTCCATG` the E-score was 0.293.
For `CATGTGTA`, the E-score was 0.461.
`CGATCACG` gave an E-score of 0.344.
The E-score of `CGTGTCCA` is reported as 0.33.
`ATGTGGTA` gave an E-score of 0.315.
For `ACCACGCG`, the E-score was 0.471.
The E-score of `TCGTGTCA` is reported as 0.309.
For `ATGTGCCC`, the E-score was 0.369.
For `GTGTGGCA`, the E-score was 0.305.
The E-score of `ACGCCACC` is reported as 0.272.
`CACGCCGG` gave an E-score of 0.358.
The E-score of `AGTACCAC` is reported as 0.301.
For `GCGTGCAA`, the E-score was 0.409.

Sample 4
Target: RNA binding protein fox-1 homolog 2, RRM domain, GST-SBP tag (RBFOX2, Homo sapiens, UniProt O43251-10, residues 100-194)
Method: RNA Bind-n-Seq
Molecule type: RNA
Medium: in vitro
Tested at: 365 nM
Setting: natural RNA segment, single round, ends assumed
Reference: no-protein control
Reading: higher = stronger binding
Constant ends, left off below: GGGAGUUCUACAGUCCGACGAUC … UGGAAUUCUCGGGUGCCAA
Residues (chain): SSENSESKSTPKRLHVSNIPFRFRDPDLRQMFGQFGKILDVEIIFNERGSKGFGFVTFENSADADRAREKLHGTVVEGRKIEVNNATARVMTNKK
`CUUUAAUUCACUAAUUAAUAGUGACCUGUUGUUAAAUCCAAAUCCACUUUGCUGAAAAAUACUGUACAUGUGUAAAAUGUUCAGUUGUUUUUUUGUAAAAUAUAGAACAG` — result for “RBNS enrichment (R)”: 0.397.
For `CAGAGCCCGGAGUUUGAAUCCCAGAGUCCUAAGUAUGAGCCCCGAAGCCCUGGCUGCCAUCCCAGGAGCCCUGGCUGUGAACCUGGGAGUCCUAGGUAUGAACCCAAAAG`, “RBNS enrichment (R)” read 1.18.
For `CCCUCGUGUACAACCAAAGAACAGGCAUUAUGAAAUUGUAUAGUAAUAUCUAGAAACACCACUUCCCUCCAACCUGCGACUUUUGUACAAAAUUCAGAGAAUCUGUAAAG`, “RBNS enrichment (R)” read 0.29.
For `GUUCUGUGGCUAGGAUUGCUAGAGGGUCCUGCCUAUGUGAUUUGCUUUAGGAGAAGUUAAGAGGUAUAUUCUUAAGGUGUAUUCUAUUUUGAUCUAAUUCUGUUUCUGGG`, “RBNS enrichment (R)” read 0.603.
`UACAUUUUCCUGCUGGUAAAAGGAGAAACUGAGAGGUGUCCUGCAGACCGGCUGACCACUCCUUUUGGAGACGGCAGGAGGCCUGAGCGAUCCGUACUCAGAACGUCCAG`: “RBNS enrichment (R)” 0.238.
`GAGCCUGUGUCCGCAGCUGCUGCCACUCUGGGCUGCUCCAGCCUGCAACUUAGUGGAAGGAAUUACUUCCUCCUGAGGCUACAGGCGAGAAAGGUAGGGAUGGGCCAGCC` — result for “RBNS enrichment (R)”: 0.414.
For `UACGAGUCCACAUGGAUAAAAUGUUAGAGAGUGGAGUUCUACAGAGGAUUCCAGGAAGAGGCCAUGUCUGUGCAGUCCUAGUUCCAGACAGGUGAGAAGCUCCAGGAACU`, “RBNS enrichment (R)” read 0.33.
Under “RBNS enrichment (R)”, `GUGAUGGCUGUCUCUCUCUAGUAAUGUCCUUGUUCUUAUUCUUCCCUCCUACAGCUGGCCUAACCACUCUUGAGUCGGGGUGGGGGUAACCCUCAAGGAGGAGGUAACUA` is recorded as 0.543.
Under “RBNS enrichment (R)”, `AGGGCUAUAUUUUUCUAGCAUUUGACCUACUUGCGACUUGAUACAGAUUGCAUAGCCUGAAAGAGGCUUCUGUGGCCACCUGGGAGUCUCAGUGUUUUCUUCAAAACUUC` is recorded as 0.556.
For `GCAUUGGUACUGGUCUGAGCCACCUGCUACCCAGUAGAUAGAUAACCUUUUUGUUAGUGUUUAAGGGAGCCCCUGAAGAGACUCAACAGAACAGUGAGAGGAGAGAGAGA`, “RBNS enrichment (R)” read 0.427.
For `CUCACAUCUUCCCAGGCUGCCUUUUCUUCCAAGUUUCACCUUUCCUCCCAGCAGAAAGCUCUGCUUGGCUUUUGGUGCACUGCUCACCCCCAGCUCCACUGGCCCAAGUC`, “RBNS enrichment (R)” read 0.269.
`UUCAGUAAACAUGUGAAUCCUGAAACCCUAACAUUCUGAUUGCAAUCUCUACUCAUCCCUCCUUCCCUAGAGGAGCCUUUGAGGAGCCUCUUUCCUGGGGACAAAAGGCU` — result for “RBNS enrichment (R)”: 0.251.

Sample 5
Target: Histone acetyltransferase KAT6A, winged helix 2, GST fusion (KAT6A, Homo sapiens, UniProt Q92794, residues 85-181)
Method: protein binding microarray
Molecule type: double-stranded DNA, one strand shown
Medium: in vitro
Tested at: not given
Setting: 8-mer, flanks averaged, mean of 2 arrays, mostly near background
Reference: not given
Reading: higher = stronger binding
Construct (chain): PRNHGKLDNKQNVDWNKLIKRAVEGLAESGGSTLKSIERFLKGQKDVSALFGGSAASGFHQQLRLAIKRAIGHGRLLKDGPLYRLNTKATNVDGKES
With `AGCCCACG` the E-score was 0.0838.
With `CTCTGATA` the E-score was 0.061.
The E-score of `ACCAGAGC` is reported as 0.139.
With `ATTCCACG` the E-score was -0.0898.
For `GGCGCCTA`, the E-score was 0.0956.
The E-score of `GTCGACGA` is reported as 0.0926.
`ACTACCCA` gave an E-score of -0.106.
With `GGGGAGGA` the E-score was 0.158.
For `ACTTCTTA`, the E-score was -0.208.
For `GGAGCGCC`, the E-score was 0.187.
For `CCTAAAAG`, the E-score was -0.182.
`AATCGCAG` gave an E-score of 0.141.
The E-score of `ATGATGGC` is reported as -0.118.
The E-score of `CGTAGTAG` is reported as -0.0506.
With `CAGGCACG` the E-score was 0.0253.
`AATTGTCC` has an E-score of -0.132.
The E-score of `ACAGTCAG` is reported as -0.0666.
For `CGTGTACA`, the E-score was 0.0753.
`GGCAGGAA` has an E-score of 0.057.
`CCTCCCTC` has an E-score of 0.152.
With `CTCTCTCC` the E-score was -0.0532.
`AGTTGCTA` has an E-score of -0.00073.
For `CCGCTTGC`, the E-score was 0.109.
`CGACGTTC` gave an E-score of -0.201.
`GGTGAATA` gave an E-score of -0.00534.

A few entries again (sample 1):
With `GTCTTGTCTCATTGGAAGGTGGGTGTCCCCACTTCA` the fluorescence intensity was 4800 a.u.
With `CTCCCTCTGTGCGGCCACGTGGGACTCGTCGTCTTG` the fluorescence intensity was 17700 a.u.
For `ATCGTCAAAAGAGTAAACGTGCCGAGCAAAATCATC`, the fluorescence intensity was 14300 a.u.
The fluorescence intensity of `AGATTTATGGCTTTCCATGTGGTTAAAGAAAAATTG` is reported as 7920 a.u.
`AGTGCTTTCCTTTGTCACCGGCGTAACGGATTCGCT` has a fluorescence intensity of 3000 a.u.
With `TGCGCAACAACTTGCTCTGTGGGTGTATGTCTAGAA` the fluorescence intensity was 4490 a.u.
With `CTTTCCCGATCTTTTCACGTGAAATTAGCACATTTG` the fluorescence intensity was 9340 a.u.
`CTTCTGTAAATTTGACACGTGGGTGGACGCGCCCCG` gave a fluorescence intensity of 20500 a.u.
`CGGGGTTAAGTTTGTCACTACACTTGCTTGCAGCAG` has a fluorescence intensity of 3840 a.u.
`CGGGGTTAAGTTTGTCACGATACTTGCTTGCAGCAG` has a fluorescence intensity of 5820 a.u.
With `CTTTCCCGATCTTGGATAGTGGGTGTAGCACATTTG` the fluorescence intensity was 4390 a.u.
With `TTGAACTGCTGGGATCGGATGACGTTTTGGAGGAAG` the fluorescence intensity was 3690 a.u.
The fluorescence intensity of `AGCGAGCCGGCGGCAATCGTGGGACGCGATGGCACT` is reported as 6080 a.u.
`CTTTCCCGATCTTGCCAGGTGGGTGTAGCACATTTG` gave a fluorescence intensity of 6020 a.u.
With `GCATAGTCATATCACCACGTGGAACATCATGAAAAA` the fluorescence intensity was 20600 a.u.
